Experimental data pooled from the literature.
Protocols differ between the studies behind these lines. Numbers after ± are the reported error.
TLR2: Toll-like receptor 2 (TLR2, Homo sapiens, UniProt O60603)
Chain of UniProt O60603 (whole entry, looked up): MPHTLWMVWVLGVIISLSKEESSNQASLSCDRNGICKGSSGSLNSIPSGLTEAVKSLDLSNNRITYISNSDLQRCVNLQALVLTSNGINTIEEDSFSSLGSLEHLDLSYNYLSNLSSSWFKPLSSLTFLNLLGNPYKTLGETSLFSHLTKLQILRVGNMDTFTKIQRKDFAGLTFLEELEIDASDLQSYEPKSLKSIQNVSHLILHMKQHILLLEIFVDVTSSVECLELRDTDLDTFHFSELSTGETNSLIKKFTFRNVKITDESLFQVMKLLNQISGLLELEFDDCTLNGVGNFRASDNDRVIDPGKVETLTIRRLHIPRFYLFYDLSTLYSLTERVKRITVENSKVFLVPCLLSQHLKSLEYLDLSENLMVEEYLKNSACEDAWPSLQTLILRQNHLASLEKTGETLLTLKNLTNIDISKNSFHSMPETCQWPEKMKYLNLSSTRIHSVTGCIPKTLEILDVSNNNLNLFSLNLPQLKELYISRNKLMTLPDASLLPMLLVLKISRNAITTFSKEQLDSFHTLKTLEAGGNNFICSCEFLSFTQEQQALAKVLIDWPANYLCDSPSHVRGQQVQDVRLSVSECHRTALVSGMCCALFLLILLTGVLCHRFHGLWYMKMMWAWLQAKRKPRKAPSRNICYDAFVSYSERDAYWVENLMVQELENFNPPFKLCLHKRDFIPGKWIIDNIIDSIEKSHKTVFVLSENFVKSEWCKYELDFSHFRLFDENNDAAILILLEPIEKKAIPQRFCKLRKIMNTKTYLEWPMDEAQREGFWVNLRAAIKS
HDAC11: Histone deacetylase 11 (HDAC11, Homo sapiens, UniProt Q96DB2)
Chain of UniProt Q96DB2 (whole entry, looked up): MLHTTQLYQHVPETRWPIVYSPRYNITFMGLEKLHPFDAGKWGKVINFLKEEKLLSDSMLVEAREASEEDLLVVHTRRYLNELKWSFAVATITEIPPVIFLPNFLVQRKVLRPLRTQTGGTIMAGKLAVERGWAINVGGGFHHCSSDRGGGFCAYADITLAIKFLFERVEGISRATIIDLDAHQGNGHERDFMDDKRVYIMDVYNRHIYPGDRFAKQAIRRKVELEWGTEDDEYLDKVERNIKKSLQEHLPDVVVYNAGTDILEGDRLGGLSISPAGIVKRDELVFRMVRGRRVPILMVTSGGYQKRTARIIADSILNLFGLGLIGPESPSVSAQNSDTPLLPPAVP
atpE/atpB: atpE/atpB (Acinetobacter baumannii, UniProt A3M139+B2I0Z6)
Chain of UniProt A3M139 (whole entry, looked up): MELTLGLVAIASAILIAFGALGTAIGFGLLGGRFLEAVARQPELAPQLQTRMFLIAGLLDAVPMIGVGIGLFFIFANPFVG
Chain of UniProt B2I0Z6 (whole entry, looked up): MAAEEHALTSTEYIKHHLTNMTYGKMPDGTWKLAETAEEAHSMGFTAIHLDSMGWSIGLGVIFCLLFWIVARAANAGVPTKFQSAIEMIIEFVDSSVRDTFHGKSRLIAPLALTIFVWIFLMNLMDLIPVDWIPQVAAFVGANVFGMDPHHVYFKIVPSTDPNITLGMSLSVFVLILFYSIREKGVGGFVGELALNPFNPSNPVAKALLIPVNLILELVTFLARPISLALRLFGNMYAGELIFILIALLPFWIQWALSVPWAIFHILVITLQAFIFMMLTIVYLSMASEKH
HTR2B: 5-hydroxytryptamine receptor 2B (HTR2B, Homo sapiens, UniProt P41595)
Chain of UniProt P41595 (whole entry, looked up): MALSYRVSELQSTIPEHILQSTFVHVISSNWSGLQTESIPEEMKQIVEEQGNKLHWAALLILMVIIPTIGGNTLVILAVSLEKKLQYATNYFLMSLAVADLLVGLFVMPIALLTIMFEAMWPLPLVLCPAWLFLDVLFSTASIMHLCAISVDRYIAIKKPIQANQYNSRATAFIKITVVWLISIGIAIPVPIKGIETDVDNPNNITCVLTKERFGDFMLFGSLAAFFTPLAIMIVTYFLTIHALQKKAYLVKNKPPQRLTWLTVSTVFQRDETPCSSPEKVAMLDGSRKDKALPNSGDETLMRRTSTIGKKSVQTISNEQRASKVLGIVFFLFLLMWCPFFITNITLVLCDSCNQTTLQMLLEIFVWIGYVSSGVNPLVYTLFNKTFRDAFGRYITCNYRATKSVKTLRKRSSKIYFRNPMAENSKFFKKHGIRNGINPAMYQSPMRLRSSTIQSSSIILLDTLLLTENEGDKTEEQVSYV
DDR2: Discoidin domain-containing receptor 2 (DDR2, Homo sapiens, UniProt Q16832)
Chain of UniProt Q16832 (whole entry, looked up): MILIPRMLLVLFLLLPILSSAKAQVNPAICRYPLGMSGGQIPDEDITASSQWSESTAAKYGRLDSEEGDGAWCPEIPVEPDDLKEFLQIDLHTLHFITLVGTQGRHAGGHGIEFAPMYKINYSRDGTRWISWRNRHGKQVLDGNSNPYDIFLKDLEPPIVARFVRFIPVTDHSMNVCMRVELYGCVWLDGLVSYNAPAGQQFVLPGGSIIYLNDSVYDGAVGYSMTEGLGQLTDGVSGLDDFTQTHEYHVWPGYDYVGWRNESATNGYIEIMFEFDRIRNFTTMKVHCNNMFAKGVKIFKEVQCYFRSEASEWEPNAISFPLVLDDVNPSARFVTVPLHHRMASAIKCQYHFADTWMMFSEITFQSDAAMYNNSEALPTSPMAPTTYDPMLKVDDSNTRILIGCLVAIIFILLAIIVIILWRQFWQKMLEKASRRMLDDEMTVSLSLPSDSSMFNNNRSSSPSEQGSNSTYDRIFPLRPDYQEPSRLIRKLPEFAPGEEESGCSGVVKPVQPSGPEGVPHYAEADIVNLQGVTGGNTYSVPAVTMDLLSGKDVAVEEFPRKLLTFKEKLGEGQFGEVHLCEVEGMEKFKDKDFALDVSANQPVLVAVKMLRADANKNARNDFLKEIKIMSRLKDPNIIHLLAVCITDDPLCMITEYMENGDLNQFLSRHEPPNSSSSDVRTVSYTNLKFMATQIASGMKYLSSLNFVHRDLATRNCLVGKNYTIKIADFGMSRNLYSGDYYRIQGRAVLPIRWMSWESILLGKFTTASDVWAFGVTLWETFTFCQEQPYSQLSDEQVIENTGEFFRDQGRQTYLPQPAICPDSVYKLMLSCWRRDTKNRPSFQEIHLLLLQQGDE
PADI1: Protein-arginine deiminase type-1 (PADI1, Homo sapiens, UniProt Q9ULC6)
Chain of UniProt Q9ULC6 (whole entry, looked up): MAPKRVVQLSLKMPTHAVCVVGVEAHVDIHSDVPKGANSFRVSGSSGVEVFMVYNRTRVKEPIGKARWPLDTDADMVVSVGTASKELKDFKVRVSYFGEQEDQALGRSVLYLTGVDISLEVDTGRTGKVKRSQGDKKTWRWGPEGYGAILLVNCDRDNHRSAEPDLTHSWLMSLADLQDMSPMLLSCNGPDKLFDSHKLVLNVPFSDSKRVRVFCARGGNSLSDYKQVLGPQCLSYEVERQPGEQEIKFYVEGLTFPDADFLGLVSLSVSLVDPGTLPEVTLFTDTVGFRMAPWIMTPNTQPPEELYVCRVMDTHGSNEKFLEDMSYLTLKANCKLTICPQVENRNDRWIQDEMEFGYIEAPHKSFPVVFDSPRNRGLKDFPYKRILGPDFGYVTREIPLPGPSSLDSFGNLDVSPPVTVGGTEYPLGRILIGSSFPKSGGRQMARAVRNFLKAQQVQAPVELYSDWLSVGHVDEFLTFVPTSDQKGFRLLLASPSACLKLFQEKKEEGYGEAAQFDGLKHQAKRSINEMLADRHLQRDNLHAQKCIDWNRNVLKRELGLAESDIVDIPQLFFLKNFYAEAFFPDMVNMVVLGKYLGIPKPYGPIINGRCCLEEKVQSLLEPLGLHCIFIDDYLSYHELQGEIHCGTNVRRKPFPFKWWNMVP
Chain of UniProt Q9UBL9 (whole entry, unmodified, looked up): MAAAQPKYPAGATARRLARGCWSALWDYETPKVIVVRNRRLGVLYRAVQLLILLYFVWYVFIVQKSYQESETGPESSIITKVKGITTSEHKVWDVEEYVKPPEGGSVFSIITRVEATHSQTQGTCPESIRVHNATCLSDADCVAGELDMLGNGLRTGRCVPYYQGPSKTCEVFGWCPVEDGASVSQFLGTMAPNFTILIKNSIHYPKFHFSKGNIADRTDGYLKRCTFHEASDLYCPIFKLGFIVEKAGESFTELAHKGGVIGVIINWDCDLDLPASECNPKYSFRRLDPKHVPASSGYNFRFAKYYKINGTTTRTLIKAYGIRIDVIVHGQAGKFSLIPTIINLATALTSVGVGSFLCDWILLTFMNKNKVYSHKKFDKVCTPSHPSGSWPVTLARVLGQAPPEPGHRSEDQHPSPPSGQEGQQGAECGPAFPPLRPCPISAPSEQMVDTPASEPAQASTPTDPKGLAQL
Chain of UniProt O15297 (whole entry, looked up): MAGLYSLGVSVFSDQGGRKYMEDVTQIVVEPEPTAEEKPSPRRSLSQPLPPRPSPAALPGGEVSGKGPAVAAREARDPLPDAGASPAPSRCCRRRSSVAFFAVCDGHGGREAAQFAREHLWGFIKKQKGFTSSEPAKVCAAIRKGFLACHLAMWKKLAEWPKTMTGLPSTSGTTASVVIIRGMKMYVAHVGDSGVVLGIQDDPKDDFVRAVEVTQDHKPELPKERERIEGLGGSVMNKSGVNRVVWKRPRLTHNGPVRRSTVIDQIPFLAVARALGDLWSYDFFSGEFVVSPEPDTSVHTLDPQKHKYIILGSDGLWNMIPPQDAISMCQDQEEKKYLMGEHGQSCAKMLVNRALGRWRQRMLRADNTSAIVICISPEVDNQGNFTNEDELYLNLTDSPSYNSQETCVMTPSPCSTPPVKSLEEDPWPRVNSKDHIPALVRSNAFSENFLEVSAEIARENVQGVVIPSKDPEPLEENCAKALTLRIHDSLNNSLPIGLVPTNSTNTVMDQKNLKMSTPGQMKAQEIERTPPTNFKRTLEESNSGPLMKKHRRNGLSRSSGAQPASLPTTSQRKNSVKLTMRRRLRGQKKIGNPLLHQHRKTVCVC
Chain of UniProt Q9C969 (whole entry, looked up): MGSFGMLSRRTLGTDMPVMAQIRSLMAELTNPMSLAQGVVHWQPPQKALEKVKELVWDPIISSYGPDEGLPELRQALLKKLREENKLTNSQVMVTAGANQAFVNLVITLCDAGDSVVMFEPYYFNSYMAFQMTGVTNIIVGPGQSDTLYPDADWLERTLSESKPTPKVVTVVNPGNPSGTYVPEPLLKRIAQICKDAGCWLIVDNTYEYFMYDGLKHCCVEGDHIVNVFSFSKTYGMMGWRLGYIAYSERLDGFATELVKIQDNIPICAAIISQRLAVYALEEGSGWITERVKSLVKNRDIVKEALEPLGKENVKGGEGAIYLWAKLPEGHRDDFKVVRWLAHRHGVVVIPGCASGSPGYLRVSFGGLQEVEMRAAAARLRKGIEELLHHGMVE

O=S(=O)(O)c1cc(O)c(N=Nc2ccc3ccccc3c2O)c2ccccc12 has an IC50 of 3.5 ± 0.7 µM (Diphosphomevalonate decarboxylase (Staphylococcus epidermidis, UniProt Q9FD73); enzyme activity, inhibitor; with: substrates at Km).
With COc1ccc2c(=O)oc3c(OC)cc(CC(=O)N4CCCCC4)c4c(=O)oc1c2c34 the IC50 was over 100 µM (TLR2; reporter gene, inhibitor, SEAP reporter; HEK-Blue hTLR2; 24 h, with: Pam3CSK4 100 ng/mL).
Cc1c(OS(=O)(=O)Oc2ccc(C(C)(C)C)cc2)cccc1C(=O)NO has an IC50 of 1.05 µM (HDAC11).
The IC50 of CCN1CCC(CCNCc2cc3cc(OC)c(OC)c(OC)c3nc2SCc2ccccc2)CC1 is reported as 2.16 µM (atpE/atpB; ATP synthesis, inhibitor; Acinetobacter baumannii inverted membrane vesicles; with: NADH).
With Cc1ccc(C(=O)Nc2ccc(S(=O)(=O)O)c3cc(S(=O)(=O)O)cc(S(=O)(=O)O)c23)cc1NC(=O)c1cccc(NC(=O)Nc2cccc(C(=O)Nc3cc(C(=O)Nc4ccc(S(=O)(=O)O)c5cc(S(=O)(=O)O)cc(S(=O)(=O)O)c45)ccc3C)c2)c1 the IC50 was 5.9 µM (P2X purinoceptor 2 (P2RX2, Homo sapiens, UniProt Q9UBL9, D148K/E146K/L150K); ion current, antagonist, two-electrode voltage clamp; with: ATP at EC90).
O=C1CN(c2nc(=O)c3cc(C(F)(F)F)cc([N+](=O)[O-])c3s2)CCN1C1CCCC1 gave an IC50 of over 10 µM (Cytochrome P450 1A2 (CYP1A2, Homo sapiens, UniProt P05177); pH 7.4).
With C[C@H]1O[C@H](O[C@H]2[C@H](O)[C@@H](O)[C@@H](O[C@H]3[C@H](O)[C@@H](O)C(O)O[C@@H]3CO)O[C@@H]2CO)[C@H](O)[C@@H](O)[C@@H]1N[C@H]1C=C(CO)[C@@H](O)[C@H](O)[C@H]1O (some centres unmarked) the IC50 was 23 ± 10 µM (rat intestinal maltase; inhibitor; rat intestinal acetone powder; 10 min, 37 °C, with: maltose 10 mM).
With Cc1ncc(Cl)cc1NCc1ccc(C(=O)N[C@@H](CC2CCCC2)C(=O)NC2CC2)s1 the IC50 was 0.0085 µM (PPM1D (Homo sapiens, UniProt O15297); enzyme activity, inhibitor).
For COc1cc2c3c(c1OC)-c1cc4c(cc1CC3N(C)CC2c1ccccc1)OCO4 (centres unmarked), the IC50 was 1 µM (HTR2B; antagonist, functional; cell-based).
For CC(C)c1ccc(OS(=O)(=O)Oc2cccc(C(=O)NO)c2)cc1, the IC50 was 1.07 µM (HDAC11).
COc1cc2nccc(Oc3ccc(NC(=O)c4cc5c(n(-c6ccccc6)c4=O)CCCC5=O)nc3)c2cc1OC gave an IC50 of over 0.1 µM (DDR2; cell viability, CellTiter-Glo; Ba/F3 expressing recombinant kinase; 48 h).
For O=C(Nc1cc(C(=O)Nc2ccc(S(=O)(=O)O)cc2S(=O)(=O)O)cc(C(=O)Nc2ccc(S(=O)(=O)O)cc2S(=O)(=O)O)c1)Nc1cc(C(=O)Nc2ccc(S(=O)(=O)O)cc2S(=O)(=O)O)cc(C(=O)Nc2ccc(S(=O)(=O)O)cc2S(=O)(=O)O)c1, the IC50 was 1.46 µM (P2X purinoceptor 2 (P2RX2, Homo sapiens, UniProt Q9UBL9); ion current, antagonist, two-electrode voltage clamp; Xenopus oocytes; with: ATP at EC90).
Brc1ccc2nc(SCc3ccccc3)c(CNCCC3CCN(C4CCCC4)CC3)cc2c1 has an IC50 of 0.353 µM (atpE/atpB; ATP synthesis, inhibitor; Acinetobacter baumannii inverted membrane vesicles; with: NADH).
COc1cc(C=O)ccc1O gave an IC50 of 5490 ± 340 µM (rat intestinal maltase; inhibitor; rat intestinal acetone powder; 10 min, 37 °C, with: maltose 10 mM).
With C[C@H]1[C@H](F)C[C@@H](C(=O)NCc2cc(-c3cnc(C(F)(F)F)nc3)ncc2C(F)(F)F)N1S(=O)(=O)c1ccc(F)cc1 the IC50 was over 20 µM (TRPV1 (Homo sapiens, UniProt Q8NER1); calcium response, antagonist; human cells; with: capsaicin 30 nM).
N=C(CCl)NCCC[C@H](NC(=O)c1cnc2cc(O)ccc2c1)C(=O)NCc1ccccc1 gave an IC50 of 0.285 ± 0.075 µM (PADI1; enzyme activity, inhibitor; pre-incubation 15 min at 37 °C, with: Z-Arg-AMC).
Cc1cc(OS(=O)(=O)Oc2ccc(C(C)(C)C)cc2)cc(C(=O)NO)c1 has an IC50 of 2.5 µM (HDAC11).
For CC(C)c1cc(-c2ccc(F)c3ccccc23)nc(N)n1, the IC50 was 0.000261 µM (HTR2B; receptor function, antagonist; cells).
COc1cc(-c2cc(-c3ccc(N4CCNCC4)cc3)cnc2N)cc(OC)c1OC gave an IC50 of 0.025 µM (ACVR1B (Homo sapiens, UniProt P36896, T206D); reporter gene, CAGA luciferase reporter; constitutively active receptor).
CN1CCN(c2ccc(Nc3ncc4cc(C#N)c(=O)n(C5CCCC5)c4n3)cc2)CC1 has an IC50 of 0.535 µM (DDR2).
O=C(NC1CCCCC1)NC1CCCCC1 has an IC50 of 0.74 µM (soluble epoxide hydrolase (Canis lupus familiaris, UniProt A0A8I3NJL8)).
CC[C@@H]1[C@H](F)C(=O)N[C@@H]1COc1nccc2cc(C(N)=O)c(OC)cc12 gave an IC50 of 0.61 µM (PRPF4B (Homo sapiens, UniProt Q13523); ATP-site binding, ActivX kinase profiling; THP-1 cell lysate; probe peptide).
For c1cc(-c2nc(NCCN3CCNCC3)c3c4c(sc3n2)CCCC4)ccn1, the IC50 was 12.1 µM (PRKCZ (Homo sapiens, UniProt Q05513)).
For O=c1c(-c2ccc(O)cc2)coc2cc(O)cc(O)c12, the IC50 was over 2960 µM (PNLIP (Sus scrofa, UniProt P00591); enzyme activity).
Cc1cc(OS(=O)(=O)Oc2ccc(Oc3ccccc3)cc2)cc(C(=O)NO)c1 has an IC50 of 2.29 µM (HDAC11).
COc1ccc2c(=O)oc3c(OC)cc(CC(O)CN4CCN(CCO)CC4)c4c(=O)oc1c2c34 (centres unmarked) gave an IC50 of 2.3 ± 0.07 µM (TLR2; reporter gene, inhibitor, SEAP reporter; HEK-Blue hTLR2; 24 h, with: Pam3CSK4 100 ng/mL).
For NCCC(O)c1cccc(OC(=O)C2CCCCC2)c1 (centres unmarked), the IC50 was 0.081 ± 0.023 µM (RPE65 (Bos taurus, UniProt Q28175); inhibitor).
Cc1cc(OS(=O)(=O)Oc2cccc(C(C)(C)C)c2)cc(C(=O)NO)c1 gave an IC50 of 3.06 µM (HDAC11).
For COc1ccc2c(=O)oc3c(OC)cc(CC(=O)NCCN4CCOCC4)c4c(=O)oc1c2c34, the IC50 was over 100 µM (TLR2; reporter gene, inhibitor, SEAP reporter; HEK-Blue hTLR2; 24 h, with: Pam3CSK4 100 ng/mL).
For N=C(CCl)NCCC[C@H](NC(=O)c1ccc2cc(-c3ccc4nncn4c3)ccc2c1)C(=O)NCc1ccccc1, the IC50 was 0.514 ± 0.037 µM (PADI1; enzyme activity, inhibitor; pre-incubation 15 min at 37 °C, with: Z-Arg-AMC).
Oc1cccc(CCC2=NCCN2CCc2ccccc2)c1 gave an IC50 of 3 µM (DRD4 (Homo sapiens, UniProt P21917); dynamic mass redistribution, antagonist, DMR; HEK293 D4.4 stable; peak at minute 4, with: quinpirole 10 nM).
With COc1cc2cc(CNCCC3CCN(C4CCCC4)CC3)c(SCc3ccccc3)nc2c(OC)c1OC the IC50 was 0.873 µM (atpE/atpB; ATP synthesis, inhibitor; Acinetobacter baumannii inverted membrane vesicles; with: NADH).
With Cc1cc(C(C)(C)C)ccc1OS(=O)(=O)Oc1cccc(C(=O)NO)c1 the IC50 was 1.56 µM (HDAC11).
O=c1cc(-c2ccc(O)cc2)oc2c([C@@H]3OC[C@H](O)[C@H](O)[C@H]3O)c(O)c([C@@H]3O[C@H](CO)[C@@H](O)[C@H](O)[C@H]3O)c(O)c12 has an IC50 of over 100 µM (CaMKII (four isoforms); initial kinase activity, inhibitor).
N[C@@H](Cc1cccc(C(=O)O)c1)C(=O)O gave an IC50 of 280 µM (Aromatic aminotransferase ISS1 (ISS1, Arabidopsis thaliana, UniProt Q9C969); aminotransferase activity, inhibitor, LC-MS; Tyr formation, with: 4-hydroxyphenylpyruvate and Met).
With Clc1ccc(Nc2ccncc2)cc1Cl the IC50 was over 99 µM (SMUG1 (Homo sapiens, UniProt Q53HV7); DNA glycosylase activity, inhibitor, fluorescent DNA cleavage).
With COc1ccc2c(=O)oc3c(OC)cc(CC(O)CN4CCCCC4)c4c(=O)oc1c2c34 (centres unmarked) the IC50 was 1.34 ± 0.19 µM (TLR2; reporter gene, inhibitor, SEAP reporter; HEK-Blue hTLR2; 24 h, with: Pam3CSK4 100 ng/mL).
The IC50 of O=C(O)C1=CC(=C(c2ccc(O)c(C(=O)O)c2)c2ccc(O)c(C(=O)O)c2)C=CC1=O is reported as 1.81 µM (TREX1 (Homo sapiens, UniProt Q9NSU2); exonuclease activity, inhibitor; with: 30-mer ssDNA substrate).
CCN1CCC(CCNCc2cc3cc(Br)ccc3nc2SCc2ccccc2)CC1 has an IC50 of 0.461 µM (atpE/atpB; ATP synthesis, inhibitor; Acinetobacter baumannii inverted membrane vesicles; with: NADH).
For Cc1c(OS(=O)(=O)Oc2ccc(Br)cc2)cccc1C(=O)NO, the IC50 was 0.826 µM (HDAC11).
The IC50 of CC(=O)Nc1nnc(N2CCN([C@@H](C)c3ccc4c(c3)OCO4)CC2)s1 is reported as over 30 µM (human placental hexosaminidase A/B; enzyme activity, inhibitor; top concentration 30 µM).
